Measured values gathered from unrelated publications.
Compare with care: the assays were run in different laboratories. Several values in a cell are separate wells, animals, samples, runs or records. ± marks the error that the study gave.
Organism: Escherichia coli

CC(C)Oc1c(NC(=O)c2ccc(NC(=O)[C@H](CC(N)=O)NC(=O)c3ccc(NC(=O)c4ccc(C#N)cc4)cc3)cc2)ccc(C(=O)Nc2ccc(C(=O)O)cc2)c1O — bacterial burden reduction (ATCC 25922, neutropenic mouse thigh infection; intravenous, 50 mg/kg/day, 12.5 mg/kg/dose; relative to: vehicle): 4.89 log10 CFU/g
N#Cc1c(-c2ccc(OCc3ccccc3)cc2)c(C(N)=O)c(N)n(N)c1=O — viable count (time-kill; 1 x MIC, 120 min, 2 h): 0 CFU
C[C@@H](O)[C@H]1C(=O)N2C(C(=O)O)=C(SCCN=CN)C[C@H]12 — bacterial load (2904, female ICR mice, peritonitis, peritoneal fluid; dose not given, 168 h): 4.12 log CFU and 4.52 log CFU and 4.22 log CFU and 4.43 log CFU and 3.82 log CFU and 3.52 log CFU
C#CCCCC(=O)NCC — inhibition (LuxR reporter, antagonist; DH5α sensor strain; 40 µM, with: OHHL 200 nM): 13 ± 1%
COC(=O)[C@H]1[C@H]2C[C@@H]3c4[nH]c5cc(OC)ccc5c4CCN3C[C@H]2C[C@@H](OC(=O)c2cc(OC)c(OC)c(OC)c2)[C@@H]1OC — FIC index (checkerboard; tetracycline-resistant; 128 µM, with: tetracycline): 1
OC[C@H]1O[C@@H]2O[C@H]3[C@H](O)[C@@H](O)[C@@H](O[C@H]4[C@H](O)[C@@H](O)[C@@H](O[C@H]5[C@H](O)[C@@H](O)[C@@H](O[C@H]6[C@H](O)[C@@H](O)[C@@H](O[C@H]7[C@H](O)[C@@H](O)[C@@H](O[C@H]8[C@H](O)[C@@H](O)[C@@H](O[C@H]1[C@H](O)[C@H]2O)O[C@@H]8CO)O[C@@H]7CO)O[C@@H]6CO)O[C@@H]5CO)O[C@@H]4CO)O[C@@H]3CO — inhibition (LuxR reporter, antagonist; DH5α sensor strain; 40 µM, with: OHHL 200 nM): -5%
Cc1c(CN(C)C(=O)/C=C/c2cnc3c(c2)CC(NC(=O)OC(C)(C)C)C(=O)N3)oc2ccccc12 (centres unmarked) — MIC (broth microdilution; AR-0151): > 32 µg/mL
CC(=O)Oc1ccc(-c2c(C(N)=O)c(N)n(N)c(=O)c2C#N)cc1 — viable count (time-kill; 1 x MIC, 30 min): 3.64 log CFU/mL

Repeated from above:
C#CCCCC(=O)NCC — inhibition (LuxR reporter, antagonist; DH5α sensor strain; 40 µM, with: OHHL 200 nM): 13 ± 1%
